# Assay results gathered from unrelated publications.
# Parts stem from different laboratories: compare values within a part only. Positions count from the first letter of the parent shown.

# Study 1
# Target: Histone acetyltransferase KAT6A, winged helix 1, GST fusion (KAT6A, Homo sapiens, UniProt Q92794, residues 1-85)
# Method: protein binding microarray
# Form: double-stranded DNA, one strand shown
# Matrix: in vitro
# Concentration: not given
# Notes: 8-mer, flanks averaged, mean of 2 arrays, mostly near background
# Baseline: not given
# Reading: higher = stronger binding
# Residues (chain): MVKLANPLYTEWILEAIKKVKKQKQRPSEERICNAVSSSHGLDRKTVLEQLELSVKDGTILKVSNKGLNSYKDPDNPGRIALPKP
Sequence,E-score
AGCTGTAT,-0.216
GTCATATA,-0.141
CTGTGTCA,-0.0824
GCGGAGAA,0.136
GCCTTGAC,-0.0465
CGGTTATC,0.169
ACACGAAG,-0.0464
CGTCAGCA,0.0237
CAACTGAA,-0.19
GGGGTTCA,0.0506
ATCCTAGA,0.0318
CGGTTCGA,0.0947
GGAGAAAA,-0.0543
ACGGCGGG,0.451
GACGGTAC,0.263
CAGCGCCC,0.113
CTCCTGTC,-0.251
GAGGCCGC,0.314
CGCAACAG,0.109
ATAACCTC,-0.0883
GCTGCCCC,0.18
TACCACCA,-0.24
TAAAACAA,-0.154
AACAAACT,-0.208
AACAGATA,-0.215

# Study 2
# Target: CCNE2, cyclin fold, Cln2 fusion (human)
# Method: yeast growth competition, sequencing
# Matrix: yeast
# Notes: weak parent motif
# Baseline: not given
# Reading: higher = stronger binding
# Starting sequence: PKN2 docking peptide (human); VSAVQKLDFSDTM; partner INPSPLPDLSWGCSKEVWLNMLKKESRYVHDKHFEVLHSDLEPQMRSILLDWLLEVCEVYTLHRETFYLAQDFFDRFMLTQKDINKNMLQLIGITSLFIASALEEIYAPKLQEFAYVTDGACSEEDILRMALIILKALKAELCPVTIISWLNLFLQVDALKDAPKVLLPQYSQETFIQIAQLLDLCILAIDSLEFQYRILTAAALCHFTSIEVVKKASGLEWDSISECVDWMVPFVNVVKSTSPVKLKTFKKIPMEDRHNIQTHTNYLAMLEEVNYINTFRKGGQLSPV
Substitution,normalised enrichment score
M13A,0.0615
V4Q,-0.38
M13L,0.405
S2G,0.171
A3Y,0.418
D8T,-0.524
T12E,0.566
D8C,0.6
S2R,0.411
S2T,0.399
D11V,0.438
D8K,0.477
S2M,-0.0165
L7V,-0.57
S10L,-0.139
L7T,-0.104
M13E,0.412

# Study 3
# Target: RNA binding protein fox-1 homolog 2, RRM domain, GST-SBP tag (RBFOX2, Homo sapiens, UniProt O43251-10, residues 100-194)
# Method: RNA Bind-n-Seq
# Form: RNA
# Matrix: in vitro
# Concentration: 365 nM
# Notes: natural RNA segment, single round, ends assumed
# Baseline: no-protein control
# Reading: higher = stronger binding
# Target sequence (chain): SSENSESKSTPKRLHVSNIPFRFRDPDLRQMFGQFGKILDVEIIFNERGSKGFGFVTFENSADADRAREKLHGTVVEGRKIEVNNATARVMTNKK
Sequence,RBNS enrichment (R)
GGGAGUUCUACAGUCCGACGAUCUUUCCUGCCUUACACAGAGCAGUAGCAUACCAUCCCUCUGGAGGGUAGGGGACCCCUGCGGUUCCAGCCUCUUAGCCUUGGUUUGUUGGUCACAUAGCACUGUUAAAUUUUGGAAUUCUCGGGUGCCAA,0.224
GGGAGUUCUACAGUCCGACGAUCAGUAUGAACAAUGGGCACGGGGUUUUCAGCCACAGUUCCCUCGAGGCCAGUGUUCAGCAGGAUCAUGCCUUCUGUGUCUGGAAGAGGCGGCAGAGGCAACAGUGUUUAGGUGGAAUUCUCGGGUGCCAA,0.423
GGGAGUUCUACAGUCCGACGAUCCAGGAGGAUGUGCCUAGGUUAUAUGCAAAUACUGUGCCAUUUUAUAUCAGGAACUUGAGCAUCUGCAGAUAUUGGUAUCGGAGGGCGGUCCUGGAACCAAGCAUCCACGGUGGAAUUCUCGGGUGCCAA,0.694
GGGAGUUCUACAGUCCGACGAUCAGUAGUCUGUCAACCUCAGACACUGGUUUCGAGACAGUUUACACUUGACAGUUGUUCAUUAGCGCACAGUGCCAGAAUGCACACUGAGGUGAGUCUCCUGGAACAGUGGAUGGAAUUCUCGGGUGCCAA,0.625
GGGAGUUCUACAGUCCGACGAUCACACUCCUGCUCACCCAGCAAGUGCAGCCUCUGGCCCUCCUCUGCUUUUUCACUCCAUCCAGCUUAGAGUCCCCUGCUGGCUUGUCACUCGCCUGCUUUGUGCCAGGCUGUGGAAUUCUCGGGUGCCAA,1.02
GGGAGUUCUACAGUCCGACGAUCUGAUUAUAUCUAUUAAGUGUGCAUUUAUAGUAUCUCCUAUGGAUCAAUUACAGAGCACAAUGACUGUCGUUGGAUAUAUAUGUAUAUGUAUAUGUAUAUUAUAUGUAUAUUGGAAUUCUCGGGUGCCAA,0.405
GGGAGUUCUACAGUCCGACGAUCUAGAAACGUGUAUAUUUUUUAUGAAACAUUACAGUUAGAGAUUUUUAAAUAAAGAAUUUUAAAACUCUUUUUGUAUUCAUUUAUUCAAGCACUUAGGCAGUCUUUCAUAGUGGAAUUCUCGGGUGCCAA,0.688
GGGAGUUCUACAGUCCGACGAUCAUGUGUGUAUUGUAUAUGUGCACCAGCAUCAAACAUUGUGUAUCUGGAAGGAAAGCAGCAUGUUCCAGUUCUAAAAUGCAGUUACCAGACCCAUCACUUUAAAUCCUUAAUGGAAUUCUCGGGUGCCAA,6.93
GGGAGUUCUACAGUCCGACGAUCAACUGUUUUAAAUCAGGUCUGAUAACUGAUUUAAAUAUAAAUAAUACUAGGAACAAGUAGUUUCCAUAUAUUUCGGAACUUUUAAAAAGACAAAAUGAAACAAAACCGAGUGGAAUUCUCGGGUGCCAA,1.92
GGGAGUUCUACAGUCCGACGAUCAGUAAUAACCGUAUUUUUCACAGGGUGACAAAUUGGGCCAAUAAAUCUGCCAUCUUUGAACUCAUCUUUGGUGGCUAGACUGCUACGGCAGCUUCUCUGAUGGGAAAGUUUGGAAUUCUCGGGUGCCAA,0.276
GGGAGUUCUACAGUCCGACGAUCAGAUGGGGCUUCCCUUAGGAGCCAUAUUCAACUACAGCCUUCUAAAACCUGUGCCCUCAGCCACUUCGAAUGCCAGCCACCUUCUGGUUCUAAAACGGGGAGUGGUCUGAUGGAAUUCUCGGGUGCCAA,0.361
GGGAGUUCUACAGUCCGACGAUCUCUGCAUUUAACUACAAAAAAAGUUUAUGUUUAGUUUGGUAGAGGUGUUAUGUAUAAUGCUUUGUUAAAGAACCCCCUUUCCGUGCCACUGGUGAAUAGGGAUUAAUGAAUGGAAUUCUCGGGUGCCAA,4.91

# Study 4
# Target: Interferon regulatory factor 7, full length, phosphomimetic (IRF7, Homo sapiens, UniProt Q92985, residues 1-503, S101K/S471D/S472D/S475D/S476D/S477D/S483D/S484D/S487D)
# UniProt Q92985, sequence (whole entry, unmodified, looked up): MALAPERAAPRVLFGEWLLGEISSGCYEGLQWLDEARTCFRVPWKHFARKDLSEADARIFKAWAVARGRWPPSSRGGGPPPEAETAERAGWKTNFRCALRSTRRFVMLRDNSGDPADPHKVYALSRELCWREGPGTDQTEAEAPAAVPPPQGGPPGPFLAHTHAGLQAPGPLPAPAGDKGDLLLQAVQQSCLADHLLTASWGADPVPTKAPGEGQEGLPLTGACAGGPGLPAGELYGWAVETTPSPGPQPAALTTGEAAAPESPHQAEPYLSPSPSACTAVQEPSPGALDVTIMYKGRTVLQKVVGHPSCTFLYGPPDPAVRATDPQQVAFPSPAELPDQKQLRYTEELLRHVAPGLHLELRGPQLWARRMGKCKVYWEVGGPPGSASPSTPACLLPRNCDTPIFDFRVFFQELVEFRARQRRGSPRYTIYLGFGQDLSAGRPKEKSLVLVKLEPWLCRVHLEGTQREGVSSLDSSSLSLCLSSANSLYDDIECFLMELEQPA
# Method: protein-binding microarray
# Form: double-stranded DNA, one strand shown
# Matrix: in vitro
# Concentration: 250 nM
# Notes: 60-bp whole probe
# Added: salmon DNA 0.4 mg/ml
# Baseline: random background probes
# Reading: higher = stronger binding
# Shared flanks, not repeated: GCCTAGCAC … GTCTTGATTCGCTTGACGCTGCTG
Sequence,log fluorescence [z-score]
GAATCTCCCATTATATTTTAGTGCTAG,0.952
GACGTTATCGACACTGGGGACGTGCTA,-0.176
GTGAACCGGTCTCTCAGACCGTGCTAG,0.151
TTAGAACTTGGGTTTCGATTAGTGCTA,6.66
GACGATCACAGTCTCGAGACGTGCTAG,0.279
GACGATCTGGGGACTGGAGACGTGCTA,-0.741
GACGGTCTCGATTTCGGGACGTGCTAG,4.65
TGTCTGTCTGTCACCCGGACGTGCTAG,0.223
GACGGTCTCGGTAACGGGACGTGCTAG,-0.038
GACGGTTCCGGCTTCGGGACGTGCTAG,0.918
TCACCTTCTACTCTCCTACTGTGCTAG,0.823
GACGGTAACGGTTTCGGGACGTGCTAG,3.45
TTAGGTTTCGGTATCGGCTAGTGCTAG,10.2
TGCATCGTAAGCAAAAATGAGTGCTAG,-0.0263
GGACTGTCAGCCACTTTTTGGTGCTAG,-0.569
GACGGTATAGGGTATCGGGACGTGCTA,-0.375
